# Measurements gathered from unrelated publications.
# Protocols differ between the studies behind these lines. ± gives the spread as reported.
# Target: Adenosine receptor A3 (ADORA3, Homo sapiens, UniProt P0DMS8)
# Sequence of UniProt P0DMS8 (whole entry, looked up): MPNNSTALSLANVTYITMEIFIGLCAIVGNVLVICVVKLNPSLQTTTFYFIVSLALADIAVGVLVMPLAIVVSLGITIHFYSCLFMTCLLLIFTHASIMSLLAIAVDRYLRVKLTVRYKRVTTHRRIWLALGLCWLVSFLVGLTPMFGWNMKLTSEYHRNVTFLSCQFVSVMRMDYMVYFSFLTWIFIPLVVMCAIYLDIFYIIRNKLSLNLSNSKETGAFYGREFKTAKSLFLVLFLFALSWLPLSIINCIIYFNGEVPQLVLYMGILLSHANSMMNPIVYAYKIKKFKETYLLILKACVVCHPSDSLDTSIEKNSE
Compound,assay,conditions,quantity,value
N#Cc1c(N)nc(SCc2ncc[nH]2)c(C#N)c1-c1cccc(O)c1,"ligand displacement, radioligand",cell membranes,Ki,30 nM
Nc1ncnc2c1ncn2[C@@H]1O[C@H](C(=O)NCC(F)F)[C@@H](O)[C@H]1O,"ligand displacement, radioligand",cell membranes,Ki,520 nM
CNc1nc(C#Cc2ccc(Cl)s2)nc2c1ncn2[C@@H]1O[C@H](CO)[C@@H](O)[C@H]1O,kinetic radioligand binding,"no GTP, added: [3H]PSB-11",Kd,0.16 ± 0.02 nM
Cc1cc(N2CC[C@@](C#N)(C3(C)CC3)C2=O)cc(C(=O)NCc2cc(F)cc(-c3cnn(C)c3)c2)n1,cell-free assay,,IC50,1800 nM
Nc1ncnc2c1ncn2[C@@H]1O[C@H](C(=O)NCCF)[C@@H](O)[C@H]1O,"ligand displacement, radioligand",cell membranes,Ki,240 nM
OC[C@H]1O[C@@H](n2cnc3c(Nc4cccc(Br)c4)ncnc32)[C@H](O)[C@@H]1O,kinetic radioligand binding,"no GTP, added: [3H]PSB-11",Kd,12 ± 1.9 nM
CC(=O)Nc1ccc(-c2c(C#N)c(N)nc(SCc3ccccc3)c2C#N)cc1,"ligand displacement, radioligand",cell membranes,Ki,156 nM
CCNC(=O)[C@H]1O[C@@H](n2cnc3c(Nc4ccc(I)cc4)ncnc32)[C@H](O)[C@@H]1O,"ligand displacement, radioligand",cell membranes,Ki,14 nM
COc1ccc(-c2nc(CSc3nc(N)c(C#N)c(-c4ccccc4)c3C#N)cs2)cc1,"ligand displacement, radioligand",cell membranes,Ki,507 nM
CN(C(=O)c1ccn2ncc(-c3ccc(C(N)=O)cc3)c2c1)c1ccc(C#N)cn1,ligand displacement,,IC50,> 30000 nM

# For quick reference, copied from above:
Compound,assay,conditions,quantity,value
COc1ccc(-c2nc(CSc3nc(N)c(C#N)c(-c4ccccc4)c3C#N)cs2)cc1,"ligand displacement, radioligand",cell membranes,Ki,507 nM
